Results pooled from the literature.
Protocols differ between the studies behind these lines. Values joined by “and” are separate records of one study, mostly repeats; a detail may differ.
Target: Serine/threonine-protein kinase 24 (STK24, Homo sapiens, UniProt Q9Y6E0)

With `C=CC(=O)N1Cc2nc(-c3cc(-c4cc(Cl)cnc4Cl)c(F)cc3F)n(-c3ccncn3)c2C1` the inhibition was 15.6% (cell-free assay, inhibitor; 1 µM).
For `CCn1cc(C(=O)O)c(=O)c2c(N)c(F)c(NC3CCCCC3)cc21`, the inhibition was -7.1% (kinase activity; 0.1 µM, added: ATP at Km).
`Cc1cccc(O[C@H]2CCC[C@@H](C(C)CNCc3ccncc3)C2)c1` (relative stereo) gave an inhibition of -6% (kinase activity, kinome panel screening; 1 µM).
With `C=CC(=O)N1CCc2ccc(-n3c(=O)ccc4cnc5ccc(-c6cnn(C)c6)cc5c43)cc21` the remaining binding was 79% (KINOMEscan; 1 µM; relative to: DMSO control).
For `Cc1cnc2nc1Nc1cccc(c1)COC/C=C/COCc1cc(ccc1OCCN1CCOCC1)N2`, the remaining signal was 100% (cell-free assay; 0.1 µM).
`CN1CC[C@@H](COc2cnc(C#N)cc2-c2ccn3nc(NC(=O)C4CC4)cc3c2)C1` has an inhibition of 9% (enzyme activity, inhibitor; 1 µM).
The upper asymptote of `Cc1ccc(C(=O)Nc2ccc(CN3CCN(C)CC3)c(C(F)(F)F)c2)cc1C#Cc1cnc2cccnn12` is reported as 665 (target engagement, NanoBRET; human cells).
For `NC(=O)C[C@H]1CCc2sc3ncnc(O[C@H]4CC[C@H](N5CCOCC5)CC4)c3c21`, the inhibition was 3% (enzyme activity, inhibitor; 10 µM).
`COc1ccc(C(=O)/C=C/c2ccccc2-c2c[nH]c3ccc(C#N)cc23)c(O)c1` has an inhibition of 2% (enzyme activity, inhibitor; 20 µM).
`CNC1C[S+]2CC[S+]3CC[S+](C1)[Ru-4]321([N]=C=S)[n]2c3ccc(OC)cc3c3c4c(c5cc(F)c[n+]1c5c32)C(=O)NC4=O` (centres unmarked) has a remaining binding of 74% (KinomeScan; 0.1 µM; relative to: untreated).
`CCN1CCN(Cc2ccc(C(=O)Nc3ccc(C)c(NCc4cnc5[nH]ccc5c4OC)c3)cc2C(F)(F)F)CC1` has a remaining binding of 87% (binding, competition with immobilised ligand; 1 µM).
For `COCC12C(=O)NC3C4(C(OC)CC1O)C1CC5(O)C(OC)C(O)C(OC(C)=O)(C1C5OC(=O)c1ccccc1)C3(O)C(OC)C24` (centres unmarked), the remaining activity was 108% and 104% (kinase activity, inhibitor, ProQinase kinase profiling; 25 µM; relative to: control).
The remaining binding of `Cc1ccc(-c2c(/C=C(\C#N)C(=O)NC(C)C)n(CCCO)c3ncnc(N)c23)cc1` is reported as 81% (cell-free assay, competition with immobilised ligand; 1 µM).
With `CS(=O)(=O)Nc1cccc(-c2csc3cnc(Nc4ccc(N5CCN(CCCCCOc6cccc7c6C(=O)N(C6CCC(=O)NC6=O)C7=O)CC5)cc4)nc23)c1` (centres unmarked) the inhibition was 20.1% (probe labelling, inhibitor, KiNativ chemoproteomics; MOLT-4; 1 µM).
For `COc1cc(Nc2nccc(-c3cnn4nc(OC)ccc34)n2)cc(C(F)(F)F)c1`, the remaining binding was 100% (binding, competition with immobilised ligand; 1 µM).
With `CNC(=O)C1CCN(c2cc(C)c(F)cc2NC(=O)c2ccc(-c3cc(O)ccc3C)c(C)c2)CC1` the remaining binding was 97% (binding, competition with immobilised ligand; 1 µM).
`C=CC(=O)Nc1cccc(-c2cnc3[nH]cc(C(=O)NC(C)(C)C)c3n2)c1` gave an inhibition of 32% (kinase activity; 0.1 µM).

A few entries again:
With `C=CC(=O)N1Cc2nc(-c3cc(-c4cc(Cl)cnc4Cl)c(F)cc3F)n(-c3ccncn3)c2C1` the inhibition was 15.6% (cell-free assay, inhibitor; 1 µM).
The remaining binding of `Cc1ccc(-c2c(/C=C(\C#N)C(=O)NC(C)C)n(CCCO)c3ncnc(N)c23)cc1` is reported as 81% (cell-free assay, competition with immobilised ligand; 1 µM).
